Experimental data pooled from the literature.
Compare with care: the assays were run in different laboratories. Values joined by “and” are separate records of one study, mostly repeats; a detail may differ. ± gives the spread as reported. In brackets after ≈: the same amount, converted by molar mass.

Structure (SMILES) | assay | system | conditions | how to read | quantity | result
Cc1cc(/C=C2\Sc3ccccc3N2CCCN2CCC(C)CC2)c2ccccc2[n+]1C | – | human erythrocytes, 2% | 32 x MIC (S. aureus ATCC 29213), 1 h | – | hemolysis | < 5%
COc1cc2c3c(c(=O)oc2c(C2OCCCO2)c1O)CN(C)CC3 | HPLC | RPMI medium | concentration not given, 96 h, 37 °C | – | acetal hydrolysis | ~70%
COc1ccc2[nH]c([S+]([O-])Cc3ncc(C)c(OC)c3C)nc2c1 (stereo not shown) | – | healthy Chinese volunteers, CYP2C19 poor metabolizers | oral, 20 mg, enteric-coated tablets | – | t1/2 | 2.24 ± 0.42 h
CC(C)Oc1c(NC(=O)c2ccc(NC(=O)[C@H](CC(N)=O)NC(=O)c3ccc(NC(=O)c4ccc(C#N)cc4)cc3)cc2)ccc(C(=O)Nc2ccc(C(=O)O)cc2)c1O | – | CD-1 mice, male, plasma | subcutaneous, 5 mg/kg single dose | – | V/F | 22.8 ± 3.1 L/kg
NCc1cc2c(cc1F)C(=O)N(C1CCC(=O)NC1=O)C2 (stereo not shown) | – | male Beagle dog, whole blood | 3 h | – | remaining compound | < 1%
CN1C[C@H](COc2nccc3c(NCc4ccco4)cc(Cl)nc23)OC1=O | – | rabbit NZW female, isolated Langendorff heart | 3 µM, 15 min | – | PR interval | 65 ms
O=C1CSCCN1c1ccc(CO[C@@H]2COc3nc([N+](=O)[O-])cn3C2)cc1F | – | aqueous buffer | pH 7.4 | – | aqueous solubility | 28 µg/mL (≈ 68.6 µM)
CCn1c(=O)c(-c2cc(NC(=O)Nc3ccccc3)c(F)cc2Br)cc2cnc(NC)cc21 | item: amylase increased | human, moderate hepatic impairment | oral, 50 mg single dose | – | participants with grade ≥ 3 TEAE | 0%
Cc1ccc([C@@H]2O[C@H](CO)[C@@H](O)[C@H](O)[C@H]2O)cc1Cc1ccc(-c2ccc(F)cc2)s1 | – | Japanese type 2 diabetes patients | 200 mg, day 5, 24 h urine collection | baseline: baseline | urinary calcium excretion change | -30.9 mg
Cc1cccc(CNC(=O)c2cn(CCNC(=O)c3ccccc3Sc3c([N+](=O)[O-])ncn3C)c3cc4c(cc3c2=O)OC(F)(F)O4)n1 | – | Sprague-Dawley rat, male, plasma | intravenous, 5 mg/kg of parent compound | – | half-life | 1.81 ± 0.12 h
O=C(Nc1ccc(OC(F)(F)Cl)cc1)c1cnc(N2CC[C@@H](O)C2)c(-c2ccn[nH]2)c1 | per laboratory record, item: absolute neutrophil decrease | human patients | oral, dose not given, dose-finding study | – | grade ≥3 event rate | 4%
CC[C@@H]([C@H](C)O)n1ncn(-c2ccc(N3CCN(c4ccc(OC[C@@H]5CO[C@@](Cn6cncn6)(c6ccc(F)cc6F)C5)cc4)CC3)cc2)c1=O | – | rat plasma | 800 ng/mL, 3 h, room temperature | baseline: nominal concentration | stability relative error | -1.1%
NCCONC(=O)[C@@H]1CC[C@@H]2CN1C(=O)N2OS(=O)(=O)O | – | healthy Chinese male subjects | intravenous, 1 g | – | number of serious TRAE events | 0
Cc1cc(-c2nnc(N)nc2-c2ccc(F)cc2)cc(Cl)n1 | – | human, post-IO other solid tumours | oral, 100 mg once daily, phase Ia/Ib, any grade | – | patients with treatment-related AE | 71.4%
C=CCN1CC(=O)N2[C@@H](Cc3ccc(O)cc3F)C(=O)N(Cc3cccc(N4CC(N5CCN(CC)CC5)C4)n3)C[C@@H]2N1C(=O)NCc1ccccc1 | – | advanced solid tumour patients | oral, 15 mg twice daily, any grade, dose-escalation | – | treatment-related diarrhoea | 0%
Cc1noc(C)c1-c1cc(C(O)(c2ccccn2)c2ccccn2)c2nc(C3CC3)[nH]c2c1 | – | human patients, plasma | oral, 0.6 mg, cycle 1 day 8, monotherapy, 24 h | – | Ctau | 14.7 ng/mL
C[C@H](CCC(=O)O[C@@H]1O[C@H](C(=O)O)[C@@H](O)[C@H](O)[C@H]1O)[C@H]1CC[C@H]2[C@@H]3[C@H](O)C[C@@H]4C[C@H](O)CC[C@]4(C)[C@H]3CC[C@]12C | – | human, plasma | endogenous control diurnal | baseline: daily mean concentration | relative peak deviation | 54 ± 7.9%
C=CC[C@@H]1/C=C(\C)C[C@H](C)C[C@H](OC)[C@H]2O[C@@](O)(C(=O)C(=O)N3CCCC[C@H]3C(=O)O[C@H](/C(C)=C/[C@@H]3CC[C@@H](O)[C@H](OC)C3)[C@H](C)[C@@H](O)CC1=O)[C@H](C)C[C@@H]2OC | radiotelemetry | Wistar Kyoto rats, male | ip, 0.5 mg/kg/day, first 5 days, normalized thereafter | baseline: vehicle | mean arterial pressure increase | 10 ± 4 mmHg
CNC(=O)c1ccc(-c2cnc3ncc(Cc4ccc5ncccc5c4)n3n2)cc1F | – | Japanese patients | oral, 400 mg, grade 3/4 | – | blood ALP increased dose reduction/interruption | 0%
C=CC(=O)NC1CCN(c2ncc3ncnc(Nc4ccc(Oc5ccc6c(c5)ncn6C)c(C)c4)c3n2)CC1 | – | healthy male humans | oral, 240 mg | – | participants with nasal congestion TEAE | 6.3%

Structure (SMILES) | assay | system | conditions | how to read | quantity | result
CN(CCCN1CCN(C(=O)CN2CCN(CC(=O)[O-])CCN(CC(=O)[O-])CCN(CC(=O)[O-])CC2)CC1)c1ccc2nccc(C(=O)NCC(=O)N3CC(F)(F)C[C@H]3C#N)c2c1.[68Ga+3] | – | mice, HT-1080.hFAP and HT-1080 wild-type xenografts, pancreas | iv, 500 pmol, 1 h post injection | – | uptake | 0.2 ± 0.1 %IA/g
CNCc1ccc(-c2[nH]c3cc(F)cc4c3c2CCNC4=O)cc1 | – | human patients | oral, 600 mg twice daily, grade 5 | – | AST/ALT increased incidence | 0%
O=C(Nc1nc2cccc(-c3ccc(CN4CCS(=O)(=O)CC4)cc3)n2n1)C1CC1 | item: non-cardiac chest pain | human rheumatoid arthritis patients | oral, 75 mg once daily, 4 weeks, regardless of relatedness | – | treatment-emergent adverse events | 4.5%
O=C1CC[C@H](N2Cc3cc(N4CCN(CC5CCN(c6ccc([C@@H]7c8ccc(O)cc8CC[C@@H]7c7ccccc7)cc6)CC5)CC4)ccc3C2=O)C(=O)N1 | – | fasted Sprague-Dawley rat, plasma | oral, 20 mg/kg | baseline: male rats | half-life excess female over male | 83.2%
N#Cc1ccc2c(c1)[C@H]1CCCN(C(=O)c3ccc4[nH]cnc4c3)[C@H]1C2 | – | human males | 20 mg, day 7 | – | SHBG level | 36.3 nmol/L
CCc1cc(C(=O)NC)c2nccc(N3CCc4c(cc(Cn5ccnc5)cc4-c4cn(C)nc4C(F)(F)F)C3=O)c2c1 | item: Mono | Sprague Dawley rat | oral, 50 mg/kg once daily, 7 days | baseline: vehicle | change in clinical chemistry or haematology parameter | 20.3%
CNC(=O)c1ccc(-c2cnc3ncc(Cc4ccc5ncccc5c4)n3n2)cc1F | – | healthy human subjects | oral, dose not given, all grades, all causality, together with: itraconazole | baseline: subjects | diarrhoea incidence | 11.1%
N#Cc1ccc(C(c2ccc(C#N)cc2)n2cncn2)cc1 | – | human patients, tumour tissue at surgery | 15 mg daily | – | tumour concentration | 529 ± 81.5 ng/g
OC[C@H]1O[C@@H](c2ccc(F)c(Cc3cc4ccccc4s3)c2)[C@H](O)[C@@H](O)[C@@H]1O | – | Japanese patients, type 1 diabetes | oral, 25 mg/day, onset day 9 | baseline: patients | hypoglycaemia-related adverse event | 3%
CCCCC1=NC2(CCCC2)C(=O)N1Cc1ccc(-c2ccccc2S(=O)(=O)Nc2noc(C)c2C)c(COCC)c1 | – | healthy adult volunteers, plasma | oral, 400 mg, single dose, fasted, crushed tablet | – | Tmax | 3.5 h
CC(C)=CC[C@@H](O)C1=CC(=O)c2c(O)ccc(O)c2C1=O | – | plasma | 0.5 ng/mL, 3 freeze-thaw cycles at -80 °C | – | measured concentration | 0.48 ± 0.03 ng/mL
CNC(=O)c1cc(Oc2ccc(NC(=O)Nc3ccc(Cl)c(C(F)(F)F)c3)cc2)ccn1 | – | NOD-SCID mouse, serum | ip, 30 mg/kg | – | BUN | 23 ± 2.53 mg/dL
O=C(Cc1ccc2ccccc2c1)Nc1cc(C2CCC2)[nH]n1 | – | extracted mouse plasma | 0.5 ng/mL, 24 h, 4 °C, autosampler stability | – | measured mean concentration | 0.494 ± 0.02 ng/mL
COc1ncc(-c2nc3c(n2C(C)C)[C@H](c2ccc(Cl)cc2)N(c2cc(Cl)cn(C)c2=O)C3=O)c(OC)n1 | – | human patients, plasma | oral, 25 mg, cycle 1 day 1, low-dose | – | geometric mean Cmax | 235 ng/mL
O=C(NCCN1CCCC1)c1cc(-c2ccc(CN3CCOCC3)cc2)nc2ccc(F)cc12 | – | human, whole blood | oral, 2100 mg, 1.5 h | – | blood concentration | 1240 ng/mL
NC[C@@H]1O[C@H](O[C@H]2[C@@H](O)[C@H](O[C@@H]3[C@@H](O)[C@H](N)C[C@H](N)[C@H]3O[C@H]3O[C@H](CO)[C@@H](O)[C@H](O)[C@H]3N)O[C@@H]2CO)[C@H](N)[C@@H](O)[C@@H]1O | – | NSG mice | dose not given, day 15 of treatment | – | body weight | 23.3 g and 23.9 g and 25.9 g and 23.6 g and 23.8 g and 24.1 g and 21.4 g and 24.2 g
C[C@H](CCC(=O)NCC(=O)O)[C@H]1CC[C@H]2[C@@H]3CC[C@@H]4C[C@H](OS(=O)(=O)O)CC[C@]4(C)[C@H]3CC[C@]12C | – | human, plasma | endogenous baseline diurnal | baseline: daily mean concentration | relative peak deviation | 85.4 ± 9.5%
C[C@@H](N)C1CCN(S(=O)(=O)c2cccc3cnccc23)CC1 | – | healthy volunteers | 75 mg, fasted | – | participants with mental impairment | 0%
CCn1cc(C(=O)N2CCOCC2)c(=O)c2cc(NC3Cc4ccccc4C3)cnc21 | – | humans, fasted, plasma | oral, 300 mg, single dose, suspension | – | half-life | 5.74 h
CC[C@H](C)C(=O)O[C@H]1C[C@@H](C)C=C2C=C[C@H](C)[C@H](CC[C@@H]3C[C@@H](O)CC(=O)O3)[C@H]21 | – | dog, Beagle, both sexes, whole blood | 5 µM, 60 min | – | remaining compound | 86%

For quick reference, copied from above:
Structure (SMILES) | assay | system | conditions | how to read | quantity | result
O=C1CC[C@H](N2Cc3cc(N4CCN(CC5CCN(c6ccc([C@@H]7c8ccc(O)cc8CC[C@@H]7c7ccccc7)cc6)CC5)CC4)ccc3C2=O)C(=O)N1 | – | fasted Sprague-Dawley rat, plasma | oral, 20 mg/kg | baseline: male rats | half-life excess female over male | 83.2%
COc1ccc2[nH]c([S+]([O-])Cc3ncc(C)c(OC)c3C)nc2c1 (stereo not shown) | – | healthy Chinese volunteers, CYP2C19 poor metabolizers | oral, 20 mg, enteric-coated tablets | – | t1/2 | 2.24 ± 0.42 h
CC(C)=CC[C@@H](O)C1=CC(=O)c2c(O)ccc(O)c2C1=O | – | plasma | 0.5 ng/mL, 3 freeze-thaw cycles at -80 °C | – | measured concentration | 0.48 ± 0.03 ng/mL
Cc1ccc([C@@H]2O[C@H](CO)[C@@H](O)[C@H](O)[C@H]2O)cc1Cc1ccc(-c2ccc(F)cc2)s1 | – | Japanese type 2 diabetes patients | 200 mg, day 5, 24 h urine collection | baseline: baseline | urinary calcium excretion change | -30.9 mg
CCCCC1=NC2(CCCC2)C(=O)N1Cc1ccc(-c2ccccc2S(=O)(=O)Nc2noc(C)c2C)c(COCC)c1 | – | healthy adult volunteers, plasma | oral, 400 mg, single dose, fasted, crushed tablet | – | Tmax | 3.5 h
